# Measurements gathered from unrelated publications.
# A part holds a random share of what one study measured. Several values in a cell are separate wells, animals, samples, runs or records.
# Sequence of UniProt Q16832 (whole entry, looked up): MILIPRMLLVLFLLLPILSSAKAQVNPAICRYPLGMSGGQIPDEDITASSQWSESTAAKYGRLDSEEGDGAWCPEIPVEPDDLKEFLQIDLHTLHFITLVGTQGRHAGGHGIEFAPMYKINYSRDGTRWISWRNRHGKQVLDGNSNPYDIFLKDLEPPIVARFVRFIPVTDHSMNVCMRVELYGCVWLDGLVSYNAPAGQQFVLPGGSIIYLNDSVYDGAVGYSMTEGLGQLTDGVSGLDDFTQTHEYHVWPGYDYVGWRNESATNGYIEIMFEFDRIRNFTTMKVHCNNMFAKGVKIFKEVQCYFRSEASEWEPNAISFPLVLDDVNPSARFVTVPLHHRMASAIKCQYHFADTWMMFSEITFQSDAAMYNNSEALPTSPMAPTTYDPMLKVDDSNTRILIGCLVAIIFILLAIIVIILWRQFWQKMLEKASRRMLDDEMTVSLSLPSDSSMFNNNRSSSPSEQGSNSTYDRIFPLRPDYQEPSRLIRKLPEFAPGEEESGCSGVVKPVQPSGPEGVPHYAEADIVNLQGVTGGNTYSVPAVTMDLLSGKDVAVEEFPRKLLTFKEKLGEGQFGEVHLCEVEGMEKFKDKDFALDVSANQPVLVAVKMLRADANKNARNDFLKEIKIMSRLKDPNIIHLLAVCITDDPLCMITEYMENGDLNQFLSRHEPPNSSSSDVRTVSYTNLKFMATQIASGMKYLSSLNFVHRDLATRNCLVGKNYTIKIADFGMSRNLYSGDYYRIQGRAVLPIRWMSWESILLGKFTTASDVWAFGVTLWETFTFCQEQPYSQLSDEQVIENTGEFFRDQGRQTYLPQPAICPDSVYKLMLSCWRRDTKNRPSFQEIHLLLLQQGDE
# Sequence of UniProt O75676 (whole entry, looked up): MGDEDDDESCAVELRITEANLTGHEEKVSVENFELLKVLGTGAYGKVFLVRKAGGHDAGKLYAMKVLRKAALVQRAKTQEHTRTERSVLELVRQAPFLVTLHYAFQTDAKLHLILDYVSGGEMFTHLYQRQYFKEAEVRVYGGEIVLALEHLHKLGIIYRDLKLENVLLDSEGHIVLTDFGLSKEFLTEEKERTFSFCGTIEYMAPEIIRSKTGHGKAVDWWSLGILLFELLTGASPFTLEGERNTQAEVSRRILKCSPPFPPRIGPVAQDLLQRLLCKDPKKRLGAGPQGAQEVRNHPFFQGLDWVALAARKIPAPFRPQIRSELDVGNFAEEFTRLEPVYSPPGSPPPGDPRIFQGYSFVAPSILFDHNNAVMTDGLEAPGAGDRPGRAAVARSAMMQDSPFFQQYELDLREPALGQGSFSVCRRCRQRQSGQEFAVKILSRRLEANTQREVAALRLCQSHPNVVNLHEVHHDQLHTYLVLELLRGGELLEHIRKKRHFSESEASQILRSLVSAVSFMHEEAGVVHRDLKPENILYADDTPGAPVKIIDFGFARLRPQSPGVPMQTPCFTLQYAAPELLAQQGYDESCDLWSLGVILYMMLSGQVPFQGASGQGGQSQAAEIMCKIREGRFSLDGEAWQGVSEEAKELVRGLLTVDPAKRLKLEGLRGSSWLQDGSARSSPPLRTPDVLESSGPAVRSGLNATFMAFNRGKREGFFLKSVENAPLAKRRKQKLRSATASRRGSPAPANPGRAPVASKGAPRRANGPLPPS
# Sequence of UniProt Q96RR4 (whole entry, looked up): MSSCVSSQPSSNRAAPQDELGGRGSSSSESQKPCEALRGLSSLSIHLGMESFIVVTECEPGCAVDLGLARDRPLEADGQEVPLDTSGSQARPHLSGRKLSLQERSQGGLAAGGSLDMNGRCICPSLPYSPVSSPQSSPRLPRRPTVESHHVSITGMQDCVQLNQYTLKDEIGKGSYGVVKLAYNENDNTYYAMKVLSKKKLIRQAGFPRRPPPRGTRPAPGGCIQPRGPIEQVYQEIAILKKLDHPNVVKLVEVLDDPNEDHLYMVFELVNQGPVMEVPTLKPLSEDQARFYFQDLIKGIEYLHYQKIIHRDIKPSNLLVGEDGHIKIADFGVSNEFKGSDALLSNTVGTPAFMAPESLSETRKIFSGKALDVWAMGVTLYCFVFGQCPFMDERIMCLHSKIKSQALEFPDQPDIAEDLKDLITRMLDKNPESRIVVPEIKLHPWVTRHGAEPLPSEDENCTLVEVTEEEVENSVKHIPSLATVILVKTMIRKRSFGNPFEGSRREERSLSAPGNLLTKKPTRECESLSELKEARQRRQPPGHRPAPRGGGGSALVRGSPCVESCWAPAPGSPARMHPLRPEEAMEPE
# Sequence of UniProt Q15759 (whole entry, looked up): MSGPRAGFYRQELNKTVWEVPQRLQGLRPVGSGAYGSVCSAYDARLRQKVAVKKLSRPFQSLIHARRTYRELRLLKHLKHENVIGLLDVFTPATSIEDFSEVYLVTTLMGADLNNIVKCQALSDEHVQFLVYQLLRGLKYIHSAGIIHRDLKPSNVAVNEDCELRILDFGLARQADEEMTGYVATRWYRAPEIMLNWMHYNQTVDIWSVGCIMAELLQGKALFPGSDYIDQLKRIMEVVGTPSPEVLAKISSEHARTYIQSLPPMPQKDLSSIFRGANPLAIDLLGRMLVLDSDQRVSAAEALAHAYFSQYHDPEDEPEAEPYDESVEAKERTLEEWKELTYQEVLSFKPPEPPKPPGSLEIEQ
# Sequence of UniProt Q02750 (whole entry, looked up): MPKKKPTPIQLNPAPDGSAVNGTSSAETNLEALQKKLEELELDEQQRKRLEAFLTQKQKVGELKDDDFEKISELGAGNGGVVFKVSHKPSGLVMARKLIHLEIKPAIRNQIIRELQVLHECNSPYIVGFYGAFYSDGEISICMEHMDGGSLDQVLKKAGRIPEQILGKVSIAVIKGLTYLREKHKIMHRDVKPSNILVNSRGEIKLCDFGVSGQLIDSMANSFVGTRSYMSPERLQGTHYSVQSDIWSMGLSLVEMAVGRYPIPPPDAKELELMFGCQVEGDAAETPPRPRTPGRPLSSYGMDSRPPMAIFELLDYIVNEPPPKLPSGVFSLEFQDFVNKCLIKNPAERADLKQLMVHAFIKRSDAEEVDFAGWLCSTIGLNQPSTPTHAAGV
# Sequence of UniProt P51956 (whole entry, looked up): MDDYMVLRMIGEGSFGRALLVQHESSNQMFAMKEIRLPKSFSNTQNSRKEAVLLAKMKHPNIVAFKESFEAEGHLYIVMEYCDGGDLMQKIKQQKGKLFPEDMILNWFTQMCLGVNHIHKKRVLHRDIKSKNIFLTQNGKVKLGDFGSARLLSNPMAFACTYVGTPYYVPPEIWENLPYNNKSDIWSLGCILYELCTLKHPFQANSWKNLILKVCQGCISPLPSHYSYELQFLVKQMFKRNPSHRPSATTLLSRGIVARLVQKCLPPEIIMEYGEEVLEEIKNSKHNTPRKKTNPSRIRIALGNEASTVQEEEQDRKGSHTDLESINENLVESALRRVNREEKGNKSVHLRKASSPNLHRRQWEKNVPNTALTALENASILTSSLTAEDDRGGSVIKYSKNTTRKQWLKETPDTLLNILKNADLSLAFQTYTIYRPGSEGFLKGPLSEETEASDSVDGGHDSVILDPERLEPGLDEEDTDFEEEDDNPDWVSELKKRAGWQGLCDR
# Sequence of UniProt P07948 (whole entry, looked up): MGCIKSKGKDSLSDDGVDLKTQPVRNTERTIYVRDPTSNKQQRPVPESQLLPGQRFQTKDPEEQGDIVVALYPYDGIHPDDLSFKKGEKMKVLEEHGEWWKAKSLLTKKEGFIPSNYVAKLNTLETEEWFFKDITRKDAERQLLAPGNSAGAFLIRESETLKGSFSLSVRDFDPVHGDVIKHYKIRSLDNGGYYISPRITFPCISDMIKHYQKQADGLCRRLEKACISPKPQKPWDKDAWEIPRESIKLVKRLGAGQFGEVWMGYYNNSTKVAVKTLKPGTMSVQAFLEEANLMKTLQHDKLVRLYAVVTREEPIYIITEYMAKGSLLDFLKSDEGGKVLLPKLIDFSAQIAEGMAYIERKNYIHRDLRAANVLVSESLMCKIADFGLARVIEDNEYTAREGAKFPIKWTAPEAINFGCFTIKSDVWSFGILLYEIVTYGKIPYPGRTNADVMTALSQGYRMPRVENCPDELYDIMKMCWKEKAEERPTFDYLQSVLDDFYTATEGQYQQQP
# Sequence of UniProt Q7KZI7 (whole entry, looked up): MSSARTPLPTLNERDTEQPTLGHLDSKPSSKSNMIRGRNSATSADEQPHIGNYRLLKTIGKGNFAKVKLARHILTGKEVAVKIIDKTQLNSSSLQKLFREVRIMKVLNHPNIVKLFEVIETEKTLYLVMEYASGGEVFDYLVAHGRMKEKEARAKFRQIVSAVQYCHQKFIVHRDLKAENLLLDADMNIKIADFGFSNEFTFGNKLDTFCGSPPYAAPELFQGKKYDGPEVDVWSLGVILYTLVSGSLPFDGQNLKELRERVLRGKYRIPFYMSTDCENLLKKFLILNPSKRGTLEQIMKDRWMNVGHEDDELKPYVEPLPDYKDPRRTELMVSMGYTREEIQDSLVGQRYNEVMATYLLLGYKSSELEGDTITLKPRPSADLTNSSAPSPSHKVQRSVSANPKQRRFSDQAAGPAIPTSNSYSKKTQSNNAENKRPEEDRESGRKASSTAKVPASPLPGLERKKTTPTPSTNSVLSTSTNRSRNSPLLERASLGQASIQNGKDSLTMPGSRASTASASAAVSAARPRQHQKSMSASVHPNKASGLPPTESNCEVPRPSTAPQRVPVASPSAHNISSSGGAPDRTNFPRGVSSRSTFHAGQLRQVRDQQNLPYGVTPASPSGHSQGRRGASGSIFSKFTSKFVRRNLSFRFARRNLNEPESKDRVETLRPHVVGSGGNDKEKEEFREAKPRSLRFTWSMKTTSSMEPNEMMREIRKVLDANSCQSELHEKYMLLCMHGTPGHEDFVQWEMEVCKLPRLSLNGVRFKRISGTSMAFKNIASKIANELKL

# Series 1
# Compound: CC(C)N(CCC(=O)c1ccc2ccccc2c1)Cc1ccccc1
# Read-out: enzyme activity
# Mode: inhibitor
# Tested at: 0.5 µM
# Relative to: control
target,remaining activity [%]
"MAPK11 (Homo sapiens, UniProt Q15759)",108
"TXK (Homo sapiens, UniProt P42681)",97.1
"ROCK1 (Homo sapiens, UniProt Q13464)",98.6
"MET (Homo sapiens, UniProt P08581)",110
"MARK2 (Homo sapiens, UniProt Q7KZI7)",97.9
"NEK3 (Homo sapiens, UniProt P51956)",101
"MAP2K1 (Homo sapiens, UniProt Q02750)",82.5
"DDR2 (Homo sapiens, UniProt Q16832)",92.5
"CAMK4 (Homo sapiens, UniProt Q16566)",98.3
"PRKG2 (Homo sapiens, UniProt Q13237)",139
"AKT2 (Homo sapiens, UniProt P31751)",96.5
"RPS6KA4 (Homo sapiens, UniProt O75676)",109
"MARK4 (Homo sapiens, UniProt Q96L34)",89.3
"MINK1 (Homo sapiens, UniProt Q8N4C8)",101

# Series 2
# SMILES: O=S(=O)(NC1CCC(c2cc(F)ccc2F)(S(=O)(=O)c2ccc(Cl)cc2)CC1)C(F)(F)F (centres unmarked)
# Read-out: cell-free assay
# Method: competition with immobilised ligand
# Tested at: 1 µM
target,remaining binding
"DDR2 (Homo sapiens, UniProt Q16832)",100%
"ACVR2A (Homo sapiens, UniProt P27037)",63%
"NEK4 (Homo sapiens, UniProt P51957)",100%
"LYN (Homo sapiens, UniProt P07948)",91%
"CAMKK2 (Homo sapiens, UniProt Q96RR4)",100%
"WNK4 (Homo sapiens, UniProt Q96J92)",100%

# Series 3
# Cell line: A-375
# Tested at: 100 µM
# Time: 18 h
Compound,viability
CNCCCC1c2ccccc2C=Cc2ccccc21,9.1%
CN(C)CCCOc1nn(Cc2ccccc2)c2ccccc12,66.9%
CCN(CC)CCNC(=O)c1c(C)[nH]c(/C=C2\C(=O)Nc3ccc(F)cc32)c1C,16.9% and 19.9%
Cc1cc2nc3c(=O)[nH]c(=O)nc-3n(C[C@H](O)[C@H](O)[C@H](O)COP(=O)(O)O)c2cc1C,139%
Oc1cc(O)cc(/C=C/c2ccc(O)c(O)c2)c1,81.2%
O=C1[C@H](CC[C@H](O)c2ccc(F)cc2)[C@@H](c2ccc(O)cc2)N1c1ccc(F)cc1,9.63%
CC(=O)Nc1cccc(-n2c(=O)n(C3CC3)c(=O)c3c(Nc4ccc(I)cc4F)n(C)c(=O)c(C)c32)c1,87.1%

# Series 4
# Cell line: mouse MPNST tumor cells
# Method: high-content immunofluorescence imaging
# Item: nuclear SOX9
# Tested at: 10 µM
# Time: 12 h
# Notes: mean of 2 replicates
# Relative to: DMSO control
# Reading: higher = more nuclear SOX9
Compound,nuclear SOX9 intensity
NS(=O)(=O)c1cc2c(cc1C(F)(F)F)NCNS2(=O)=O,103 % of DMSO
CC(C)(C)c1nc2c3cc[nH]c(=O)c3c3cc(F)ccc3c2[nH]1,127 % of DMSO
CCC[C@@H]1C[C@@H](C(=O)N[C@@H]([C@H]2O[C@H](SC)[C@H](O)[C@@H](O)[C@H]2O)[C@H](C)Cl)N(C)C1,99.4 % of DMSO
CC(C)NCCN(C(C)C)S(=O)(=O)c1ccc(Cl)cc1Cl,135 % of DMSO
Cc1cnc(-c2cnc(NCCNc3ccc(C#N)cn3)nc2-c2ccc(Cl)cc2Cl)[nH]1,54.3 % of DMSO

# For quick reference, copied from above (series 1):
target,remaining activity [%]
"NEK3 (Homo sapiens, UniProt P51956)",101
"PRKG2 (Homo sapiens, UniProt Q13237)",139
"RPS6KA4 (Homo sapiens, UniProt O75676)",109
"DDR2 (Homo sapiens, UniProt Q16832)",92.5
"MET (Homo sapiens, UniProt P08581)",110
